Measurements pooled from the literature.
Compare with care: the assays were run in different laboratories.
Cell line: RPMI-8226

CC(Cc1ccc(Cl)cc1)=C(c1ccc(Cl)cc1)c1ccc(OCCN(C)C)cc1 — GI50 (cell growth or viability): 1.07 µM
CC/C=C\C/C=C\C/C=C\C/C=C\C/C=C\C/C=C\CCC(=O)Nc1ccn(C2OC(CO)C(O)C2(F)F)c(=O)n1 (stereo not drawn) — GI50 (cell growth or viability, SRB): 0.0538 µM
COc1ccc2c(c1)/C(=N\Nc1nnc3n1N=C(c1ccccc1)CS3)C(=O)N2 — inhibition (cell growth or viability, SRB; 10 µM): 61%
C=CC(=O)N1CCCC(n2c(=O)c3ncccc3n(Cc3ccc(Oc4ccccc4)cc3)c2=O)C1 (stereo not drawn) — IC50 (cell growth or viability, MTT; 72 h): 10 µM
CN1CCN(C(=O)N(CCCCCCC(=O)NO)c2ccc(-c3ccc4cnn(C)c4c3)cc2)CC1 — IC50 (cell growth or viability, ATP luminescence; 72 h): 0.0533 µM
CC(=O)OC[C@H]1O[C@@H](Sc2sc(C(=O)c3ccc(Br)cc3)c(N)c2-c2nc3ccccc3s2)[C@H](OC(C)=O)[C@@H](OC(C)=O)[C@@H]1OC(C)=O — growth (SRB; 10 µM, 48 h): 43%
O=C(NO)c1ccc(Cn2sc3ccccc3c2=O)cc1 — IC50 (cell growth or viability, ATP luminescence; 72 h): 3.8 µM
CC(=O)OC[C@H]1O[C@@H](Sc2sc(C(=O)c3ccc(C)cc3)c(N)c2-c2nc3ccccc3s2)[C@H](OC(C)=O)[C@@H](OC(C)=O)[C@@H]1OC(C)=O — growth (SRB; 10 µM, 48 h): 46.5%
CC(=C(c1ccc(O)cc1)c1ccc(Cl)cc1)c1ccc(Cl)cc1 — GI50 (cell growth or viability): 0.58 µM

Some of these lines once more:
COc1ccc2c(c1)/C(=N\Nc1nnc3n1N=C(c1ccccc1)CS3)C(=O)N2 — inhibition (cell growth or viability, SRB; 10 µM): 61%
